Results of several laboratories.
Each line is one published result; not all experiments were run side by side. Values joined by “and” are separate records of one study, mostly repeats; a detail may differ. ± gives the spread as reported.

For `CN1CCC(c2ccc(-c3ccc(C4CCCCC4)cc3)cn2)CC1`, the hepatic clearance was 43 mL/min/kg (liver microsome stability; rat liver microsomes; 1 µM).
The maximal activity of `CCCCOC(=O)Cn1c2ccc(OC)cc2c2nc3ccccc3nc21` is reported as 50% (Mus musculus; gene silencing, high-content imaging; LDR reporter GFP cells; retest run 2).
The latency change of `C[C@H](Oc1ccc(Br)cc1-c1ccon1)C(=O)O` is reported as -1.46% (muscle velocity recovery cycles; human, tibialis anterior muscle; 400 mg twice daily, multiple doses, frequency ramp, first response at 30 Hz; reference: placebo).
Under “percent change from baseline”, `C[C@H]1C[C@H]2CSC(N)=N[C@@]2(c2nc(NC(=O)c3ccc(OC(F)F)cn3)cs2)CO1` is recorded as -71.4% (item: Aβ1-40; healthy adults, plasma; 15 mg once daily, day 7; reference: placebo).
The selectivity of `NS(=O)(=O)c1ccc(N/N=C2\C(=O)Nc3ccc4ncccc4c32)cc1` is reported as greater than 3.1 (Trypanosoma brucei; unit not given; reference: pEC50 T. brucei minus pTC50 HepG2).
The hepatic clearance of `O=C(NCCc1cccnc1)c1ccc(C2CCCCC2)cc1` is reported as 3.9 mL/min/kg (liver microsome stability; human liver microsomes; 1 µM, without NADPH).
The maximal activity of `COc1ccc(C(=O)/C=C/Sc2nc3ccccc3o2)cc1` is reported as 30% (Mus musculus; gene silencing, high-content imaging; LDR reporter GFP cells; retest run 1).
`CCn1cc(-c2cc(Cn3ccoc3=N)cc3c2CCN([C@@H](C)c2cc(OC)ccn2)C3=O)c(C(F)(F)F)n1` gave an EC50 of 3.3 µM (DLD-1; cell growth, inhibitor; 120 h).
`c1coc(-c2n[nH]cc2-c2ccnc3ccccc23)c1`: “log2 fold change” -0.1 (CTK1 (Candida albicans); kinase binding, MIB/MS competition; Candida albicans lysate; 10 µM; reference: DMSO).
With `COc1ccc2ncn(-c3cc(O[C@H](C)c4ccccc4Cl)c(C(N)=O)s3)c2c1` the selectivity was 2 (Trypanosoma brucei; unit not given; reference: pEC50 T. brucei minus pTC50 HepG2).
The viability of `Nc1cccc2c1C(=O)N(C1CCC(=O)NC1=O)C2=O` (centres unmarked) is reported as 47% and 29% and 40% (MM1.S; XTT; 0.6 µM).
`CCn1c(=O)c(-c2cc[nH]n2)cc2c(C)nc(N)nc21`: “total pathology score” 1 (Enterovirus A71; histopathology; EV71-infected suckling mice, brain; 0.25 mg/kg; direction not given).
The EC50 of `CCn1cc(-c2cc(Cn3ccnc3)cc3c2CCN([C@H](c2cc(OC)ccn2)C2CC2)C3=O)c(C(F)(F)F)n1` is reported as greater than 30 µM (22Rv1; cell growth, inhibitor; 120 h).
`OC(CCN1CCCCC1)(c1ccccc1)C1CC2C=CC1C2` (centres unmarked) — result for “change in EEG Alpha2-power Pz-O1”: 32% (resting-state EEG; healthy elderly humans; oral, 4 mg, eyes closed, LS mean; reference: baseline).
`O=c1sn(-c2cccc3ccccc23)c(=O)n1Cc1ccccc1` gave an EC50 of greater than 3 µM (Trypanosoma brucei; cell growth).
The maximal activity of `Cc1ccc(Sc2cc(NCCCO)c([N+](=O)[O-])c3nonc23)cc1` is reported as 97% (Mus musculus; gene silencing, high-content imaging; LDR reporter GFP cells; retest run 2).
`N#Cc1ccc2c(-c3ccncc3)c(-c3ccc(F)cc3)nn2c1`: “log2 fold change” -0.225 (kinase binding, competitor, MIB/MS competition, item: MCK1; Candida albicans cell lysate; 10 µM; reference: DMSO).
For `CCc1cc2c(cc1N1CCC(N3CCOCC3)CC1)C(C)(C)c1[nH]c3cc(C#N)ccc3c1C2=O`, the EC50 was greater than 3 µM (Trypanosoma brucei; cell growth).
With `CCOC(=O)c1cc2c(=O)n3ccccc3nc2n(Cc2ccco2)c1=NC(=O)c1ccc(Br)cc1` the maximal activity was 65% (Mus musculus; gene silencing, high-content imaging; LDR reporter GFP cells; retest run 2).
With `CC(C)n1ncc2c(C(=O)NCC3(C)CNC3)cc(C3CC3)nc21` the plaque area was 0% (Enterovirus D68; viral replication; RD, US/MO/14-18947; 1 µM; reference: untreated).
`COC(=O)c1ccc2c(c1)C(=Cc1cc(Br)c(O)c(Br)c1)C(=O)N2` has a selectivity of greater than 0.6 (Trypanosoma brucei; unit not given; reference: pEC50 T. brucei minus pTC50 HepG2).
For `Oc1ccccc1-c1n[nH]cc1-c1ccnc2ccccc12`, “log2 fold change” read 0.21 (PBS2 (Candida albicans); kinase binding, MIB/MS competition; Candida albicans lysate; 10 µM; reference: DMSO).
With `CC(C)C(=O)N1CCN(c2ccc(NC(=O)c3ccc([N+](=O)[O-])o3)cc2Cl)CC1` the maximal activity was 38% (Mus musculus; gene silencing, high-content imaging; LDR reporter GFP cells; retest run 1).
For `CC(C)NCC(O)c1ccc(O)c(O)c1` (centres unmarked), the sarcomere length was 1.72 µm (ventricular cardiomyocytes, C57BL/6 mouse; dose not given, 0.752 s).
The selectivity of `C[C@@H](Oc1cc(-n2cnc3ccc(OC4CCN(C)CC4)cc32)sc1C(N)=O)c1ccccc1Cl` is reported as 2.2 (Trypanosoma brucei; unit not given; reference: pEC50 T. brucei minus pTC50 HepG2).
`Cn1cc(-c2ccc(-c3cncc(Cl)c3N3CCC4(CCNC4=O)CC3)cc2)cn1` — result for “log2 fold change”: 2.25 (COLO 205; gene expression, microarray, item: CBS mRNA; concentration not given, 6 h; reference: untreated cells).
With `COc1cc2nc(=S)n3[nH]c(CCn4nc(C)cc4C)nc3c2cc1OC` the maximal activity was 103% (Mus musculus; gene silencing, high-content imaging; LDR reporter GFP cells; retest run 2).
`Nc1ncnc2c1c(-c1cccc(OCc3ccccc3)c1)cn2[C@H]1C[C@@H](CN2CCC2)C1` has an EC50 of 1.82 ± 0.348 µM (Trypanosoma brucei; cell growth).
`COc1ccccc1OCC(=O)N/N=C/C=C/c1ccc([N+](=O)[O-])o1` gave a maximal activity of 38% (Mus musculus; gene silencing, high-content imaging; LDR reporter GFP cells; retest run 1).
`COc1cnc2cccc(N3CCc4c(cc(Cn5ccnc5C)cc4-c4cn(C)nc4C(F)(F)F)C3=O)c2c1` gave an EC50 of 6.14 µM (HLF; cell growth, inhibitor; 120 h).
The maximal activity of `COc1ccc2c(c1)c1ccc3c(c1n2C)C(=O)C=CC3=O` is reported as 58% (Mus musculus; gene silencing, high-content imaging; LDR reporter GFP cells; retest run 2).
The selectivity of `CN(C)CCCNc1nccc(-c2c(-c3ccc(F)cc3)nn3cc(C(F)(F)F)ccc23)n1` is reported as 1 (Trypanosoma brucei; unit not given; reference: pEC50 T. brucei minus pTC50 HepG2).

Excerpt of the above:
`N#Cc1ccc2c(-c3ccncc3)c(-c3ccc(F)cc3)nn2c1`: “log2 fold change” -0.225 (kinase binding, competitor, MIB/MS competition, item: MCK1; Candida albicans cell lysate; 10 µM; reference: DMSO).
The viability of `Nc1cccc2c1C(=O)N(C1CCC(=O)NC1=O)C2=O` (centres unmarked) is reported as 47% and 29% and 40% (MM1.S; XTT; 0.6 µM).
